Measured values of several laboratories.
Compare with care: the assays were run in different laboratories. ± gives the spread as reported.
Chain of UniProt P0A7G6 (whole entry, unmodified, looked up): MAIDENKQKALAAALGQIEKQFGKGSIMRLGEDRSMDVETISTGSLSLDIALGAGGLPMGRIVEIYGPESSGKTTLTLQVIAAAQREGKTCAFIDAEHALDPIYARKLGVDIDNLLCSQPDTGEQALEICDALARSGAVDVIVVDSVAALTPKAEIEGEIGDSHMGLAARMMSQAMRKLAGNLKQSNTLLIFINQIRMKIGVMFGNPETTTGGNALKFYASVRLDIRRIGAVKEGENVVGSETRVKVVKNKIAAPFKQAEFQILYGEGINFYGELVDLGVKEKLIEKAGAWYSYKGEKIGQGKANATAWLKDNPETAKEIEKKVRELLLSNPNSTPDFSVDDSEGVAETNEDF
Chain of UniProt P48431 (whole entry, unmodified, looked up): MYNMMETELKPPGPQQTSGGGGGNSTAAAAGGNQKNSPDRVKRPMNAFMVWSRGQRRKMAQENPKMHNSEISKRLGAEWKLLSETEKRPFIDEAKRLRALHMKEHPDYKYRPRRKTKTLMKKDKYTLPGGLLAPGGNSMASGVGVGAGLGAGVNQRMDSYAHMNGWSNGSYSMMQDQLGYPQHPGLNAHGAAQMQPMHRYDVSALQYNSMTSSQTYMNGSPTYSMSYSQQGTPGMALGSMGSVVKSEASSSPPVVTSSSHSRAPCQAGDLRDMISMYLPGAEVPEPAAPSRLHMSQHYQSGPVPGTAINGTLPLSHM
Chain of UniProt P32797 (whole entry, unmodified, looked up): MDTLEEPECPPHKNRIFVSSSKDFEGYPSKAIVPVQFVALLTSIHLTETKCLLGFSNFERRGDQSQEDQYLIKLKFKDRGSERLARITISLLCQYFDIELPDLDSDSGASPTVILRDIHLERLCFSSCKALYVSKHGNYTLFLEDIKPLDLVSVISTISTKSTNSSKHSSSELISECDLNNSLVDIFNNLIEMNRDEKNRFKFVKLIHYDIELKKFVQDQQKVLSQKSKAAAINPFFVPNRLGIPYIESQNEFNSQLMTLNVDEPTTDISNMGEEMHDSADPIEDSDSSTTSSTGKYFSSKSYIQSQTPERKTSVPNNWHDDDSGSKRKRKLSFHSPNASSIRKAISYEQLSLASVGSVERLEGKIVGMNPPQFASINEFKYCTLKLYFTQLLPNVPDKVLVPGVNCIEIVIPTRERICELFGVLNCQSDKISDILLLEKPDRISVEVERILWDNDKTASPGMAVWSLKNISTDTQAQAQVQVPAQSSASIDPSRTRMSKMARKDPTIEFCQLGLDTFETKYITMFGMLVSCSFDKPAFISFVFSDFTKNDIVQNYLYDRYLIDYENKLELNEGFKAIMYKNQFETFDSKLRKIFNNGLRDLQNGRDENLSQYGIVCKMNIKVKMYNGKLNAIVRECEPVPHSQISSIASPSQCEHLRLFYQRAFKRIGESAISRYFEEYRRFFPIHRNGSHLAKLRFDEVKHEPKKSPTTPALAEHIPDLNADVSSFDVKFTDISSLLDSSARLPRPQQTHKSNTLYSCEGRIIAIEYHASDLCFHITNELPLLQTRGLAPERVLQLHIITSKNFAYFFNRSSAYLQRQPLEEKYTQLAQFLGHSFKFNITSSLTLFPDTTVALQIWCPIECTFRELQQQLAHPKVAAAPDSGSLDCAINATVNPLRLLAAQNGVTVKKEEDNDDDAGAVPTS
Chain of UniProt G5EF15 (whole entry, looked up): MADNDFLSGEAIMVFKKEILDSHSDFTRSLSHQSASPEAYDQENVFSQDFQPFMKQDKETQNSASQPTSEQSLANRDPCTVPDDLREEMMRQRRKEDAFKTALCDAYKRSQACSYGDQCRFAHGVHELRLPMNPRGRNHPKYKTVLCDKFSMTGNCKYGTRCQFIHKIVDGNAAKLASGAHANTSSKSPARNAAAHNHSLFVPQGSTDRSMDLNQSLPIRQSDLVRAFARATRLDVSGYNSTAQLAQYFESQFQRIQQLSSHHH
Chain of UniProt P92973 (whole entry, looked up): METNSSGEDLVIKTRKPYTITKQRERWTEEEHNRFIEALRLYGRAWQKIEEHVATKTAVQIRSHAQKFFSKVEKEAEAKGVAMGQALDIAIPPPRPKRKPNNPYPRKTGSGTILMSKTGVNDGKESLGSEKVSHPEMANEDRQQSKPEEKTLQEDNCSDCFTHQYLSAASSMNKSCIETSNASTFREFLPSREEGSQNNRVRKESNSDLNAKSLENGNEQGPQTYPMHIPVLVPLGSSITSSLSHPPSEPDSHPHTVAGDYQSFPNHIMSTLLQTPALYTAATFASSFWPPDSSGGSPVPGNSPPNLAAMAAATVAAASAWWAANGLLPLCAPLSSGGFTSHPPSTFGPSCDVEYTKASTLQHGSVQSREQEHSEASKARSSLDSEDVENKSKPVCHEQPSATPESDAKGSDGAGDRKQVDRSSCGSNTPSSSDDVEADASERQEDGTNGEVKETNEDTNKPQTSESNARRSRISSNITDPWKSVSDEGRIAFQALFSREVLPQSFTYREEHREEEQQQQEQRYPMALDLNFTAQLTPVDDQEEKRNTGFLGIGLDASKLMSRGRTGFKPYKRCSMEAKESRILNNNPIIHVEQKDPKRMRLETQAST
Chain of UniProt Q92674 (whole entry, unmodified, looked up): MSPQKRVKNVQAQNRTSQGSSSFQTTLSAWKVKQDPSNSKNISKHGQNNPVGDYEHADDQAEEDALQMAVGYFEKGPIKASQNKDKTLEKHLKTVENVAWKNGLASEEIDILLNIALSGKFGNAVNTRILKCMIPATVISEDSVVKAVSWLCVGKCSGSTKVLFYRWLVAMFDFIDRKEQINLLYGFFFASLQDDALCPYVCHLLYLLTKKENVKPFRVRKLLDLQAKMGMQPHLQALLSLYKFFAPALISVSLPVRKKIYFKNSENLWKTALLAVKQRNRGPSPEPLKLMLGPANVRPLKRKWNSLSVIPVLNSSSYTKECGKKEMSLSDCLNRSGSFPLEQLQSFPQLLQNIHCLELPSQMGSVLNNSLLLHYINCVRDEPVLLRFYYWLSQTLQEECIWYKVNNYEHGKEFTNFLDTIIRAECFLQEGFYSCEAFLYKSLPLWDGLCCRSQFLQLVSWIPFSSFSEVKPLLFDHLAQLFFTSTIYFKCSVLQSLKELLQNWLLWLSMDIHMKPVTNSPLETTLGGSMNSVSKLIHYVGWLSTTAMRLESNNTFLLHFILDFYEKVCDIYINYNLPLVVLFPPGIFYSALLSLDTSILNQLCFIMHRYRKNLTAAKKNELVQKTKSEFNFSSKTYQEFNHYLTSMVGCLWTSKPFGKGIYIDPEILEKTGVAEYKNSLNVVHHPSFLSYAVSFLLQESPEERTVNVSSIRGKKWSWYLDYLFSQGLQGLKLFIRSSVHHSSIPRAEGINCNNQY
Chain of UniProt Q5T3I0 (whole entry, looked up): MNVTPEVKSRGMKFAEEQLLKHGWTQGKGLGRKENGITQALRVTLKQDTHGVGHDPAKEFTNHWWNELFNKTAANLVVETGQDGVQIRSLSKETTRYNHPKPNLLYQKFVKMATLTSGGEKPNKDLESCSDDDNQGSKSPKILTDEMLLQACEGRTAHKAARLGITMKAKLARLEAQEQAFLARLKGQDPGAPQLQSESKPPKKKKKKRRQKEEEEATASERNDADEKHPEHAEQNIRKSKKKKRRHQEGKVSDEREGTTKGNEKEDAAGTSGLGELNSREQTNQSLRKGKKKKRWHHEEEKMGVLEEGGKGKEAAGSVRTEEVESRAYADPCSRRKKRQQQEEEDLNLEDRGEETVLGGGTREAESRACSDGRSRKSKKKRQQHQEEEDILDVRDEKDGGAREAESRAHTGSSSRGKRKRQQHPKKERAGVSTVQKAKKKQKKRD
Chain of UniProt A0A0P0XBU0 (whole entry, looked up): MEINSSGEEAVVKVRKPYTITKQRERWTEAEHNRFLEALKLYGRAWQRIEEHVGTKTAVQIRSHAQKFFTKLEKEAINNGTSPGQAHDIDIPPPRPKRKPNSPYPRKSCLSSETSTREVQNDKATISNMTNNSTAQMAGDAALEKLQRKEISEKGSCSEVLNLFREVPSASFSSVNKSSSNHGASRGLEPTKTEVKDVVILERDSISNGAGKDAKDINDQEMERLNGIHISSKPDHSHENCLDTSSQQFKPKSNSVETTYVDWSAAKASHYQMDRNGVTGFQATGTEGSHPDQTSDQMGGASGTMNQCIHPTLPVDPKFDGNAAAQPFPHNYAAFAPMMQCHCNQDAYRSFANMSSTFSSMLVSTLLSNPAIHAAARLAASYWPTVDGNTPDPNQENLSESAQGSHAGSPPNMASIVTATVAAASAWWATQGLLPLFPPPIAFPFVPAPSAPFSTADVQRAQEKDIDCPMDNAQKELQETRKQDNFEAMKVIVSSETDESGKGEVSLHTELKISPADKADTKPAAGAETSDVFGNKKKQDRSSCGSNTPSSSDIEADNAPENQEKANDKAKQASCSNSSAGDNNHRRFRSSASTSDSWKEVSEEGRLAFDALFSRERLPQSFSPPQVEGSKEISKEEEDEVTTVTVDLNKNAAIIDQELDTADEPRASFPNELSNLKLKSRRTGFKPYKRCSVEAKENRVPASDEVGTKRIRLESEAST
Chain of UniProt P60842 (whole entry, looked up): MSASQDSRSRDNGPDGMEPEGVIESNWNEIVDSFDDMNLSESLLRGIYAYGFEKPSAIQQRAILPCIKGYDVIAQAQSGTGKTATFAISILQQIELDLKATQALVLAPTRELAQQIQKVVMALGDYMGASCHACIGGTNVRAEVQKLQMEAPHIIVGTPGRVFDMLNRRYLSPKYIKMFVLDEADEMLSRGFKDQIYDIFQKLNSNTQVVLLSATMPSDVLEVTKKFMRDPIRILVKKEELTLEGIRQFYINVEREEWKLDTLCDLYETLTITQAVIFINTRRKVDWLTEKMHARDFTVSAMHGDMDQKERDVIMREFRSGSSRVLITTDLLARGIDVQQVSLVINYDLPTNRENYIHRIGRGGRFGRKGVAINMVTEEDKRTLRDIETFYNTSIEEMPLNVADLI

Molecule	target or system	assay	system	setting	how to read	quantity	value
TGTTGTGTGGAATTGTGAGCGGATAACAATTTCACACAGG (dsDNA (Escherichia coli); blunt)	lacI full length assumed D149C (Escherichia coli, UniProt P03023)	filter binding	double-stranded DNA, one strand shown			binding	binds
epoetin alfa	UT7/EPO	microarray, measured: OSM (probe 214637_at)		5 U/mL, 90 min, with: SCF 10 nM	relative to: vehicle	mRNA level	54.5 fold
CGCCATGCTGATCCGTGTGGTGTGTGTGGG (ssDNA (Saccharomyces cerevisiae))	CDC13 231-924 (Saccharomyces cerevisiae, UniProt P32797)	BLI	single-stranded DNA			binding	binds
TAGTACTTGATATATCTTAAGCCCACTGTTCTGTTTTAGCGAGGAAAATGTTACCGGCGA (dsDNA)	CCA1 full length assumed (Arabidopsis thaliana, UniProt P92973)	EMSA	double-stranded DNA, one strand shown			binding	binds
GSGAGKETYY	human SCRIB PDZ3-4 tandem (MBP fusion)	automated holdup	peptide, crude extract	concentration not given, corrected by standard peak, unit not given	relative to: biotin control resin, higher = stronger binding	binding intensity	0.000166
GAGCTGCAAGTGGATATTTGGACCTCTTTGAGGTCTTCGTTGGAAACGGGATTTCCTCATATAATGTTACACAGAAGAATTCTCAGTAACTTATTTGTGGTGTGTGTATTCAACTCACAGAGGTGAACCTTCCTTCAGAAAGAGCAGATTTGAAACACTCTTTTTGTACCC (dsDNA)	CENPI 57-281 K243A/K263A/K270A/R279A/N280A (Homo sapiens, UniProt Q92674)	EMSA	double-stranded DNA, one strand shown			binding	no binding
GGTTAGGGTTAG (ssDNA; 5'-phosphate)	POT1 1-299 F62A (Homo sapiens, UniProt Q9NUX5)	EMSA	single-stranded DNA			binding	no binding
AGAGAGAGAGAGAGAG (ssRNA)	EIF4A1 1-406 (Homo sapiens, UniProt P60842)	fluorescence polarization	RNA	with: ATP, silvestrol 10 µM		binding	binds
ACAAAAGTTTATAAATGACTCGGTGTTTGACATAACTCGGGGTTGTTTTTCTTTGTTAATTCACACACGGGGTTGGTGTATAAATGACTTCGGTGTTTGAAATGT (dsDNA)	MYC2 1-623 (Arabidopsis thaliana, UniProt Q39204)	EMSA	double-stranded DNA, one strand shown			binding	binds
AGGAGCGTGACACGTAAGACAAAAAG (dsDNA)	HY5/CaM2 1-158; 1-149 (Solanum lycopersicum)	EMSA	double-stranded DNA, one strand shown	with: CaCl2 5 mM		binding	binds
GACTCTTTGTTTGGC (dsDNA; blunt)	SOX2 39-118 Y108A (Homo sapiens, UniProt P48431)	NMR	double-stranded DNA, one strand shown			binding	binds
colistin	Klebsiella pneumoniae	broth microdilution	clinical isolate RKI-No_94/15			MIC	≤ 0.5 mg/L
TATCGAGTTGAAAAAAAAACTCCTCGGTG (dsDNA)	Ethylene-responsive transcription factor 13 (Nicotiana attenuata, UniProt A0A1J6JM52)	EMSA	double-stranded DNA, one strand shown			binding	no binding
CTGTGAGTTGATGATGATATCATGTAGGC (dsDNA)	MADS-RIN-like protein 1-249 (Fragaria ananassa, UniProt Q84U54)	EMSA	double-stranded DNA, one strand shown			binding	binds
ACACATTATGTTGTTTATTGTATGGCCAACATTTTGCCTAACA (dsDNA)	SPL13 1-401 (Vitis vinifera, UniProt F6GSW2)	EMSA	double-stranded DNA, one strand shown			binding	no binding
Peginesatide	UT7/EPO	RT-qPCR, measured: EGR3		concentration not given, 90 min, normalized to HPRT1	relative to: vehicle	mRNA level	20 fold
GTTAATGTTGGCTTTTAAGTCGCTACGAACAAATCTACAAAAGTTTTACTTATAAATTA (dsDNA)	CCA1 full length assumed (Oryza sativa, UniProt A0A0P0XBU0)	EMSA	double-stranded DNA, one strand shown			binding	binds
PMESGICTIV	human SCRIB PDZ3-4 tandem (MBP fusion)	automated holdup	peptide, crude extract	concentration not given, uncorrected, unit not given	relative to: biotin control resin, higher = stronger binding	binding intensity	0.111
GGTGGTGGTGGTGGTGGT (ssDNA)	recA full length assumed F204Y (Escherichia coli, UniProt P0A7G6)	fluorescence anisotropy	single-stranded DNA	with: ATPγS		binding	binds
ATAAGTCACATGATGATATTTGATTTTATTATATTTTTAAAAAAAGTAAAAAATAAAAAGTAGTTTATTTTTAAAAAATAAAATTTAAAATATTTCACAAAATGATTTCCGAA (dsDNA)	CENP-I 1-229 K209E (Thermochaetoides thermophila, UniProt G0SFF7)	EMSA	double-stranded DNA, one strand shown			binding	binds
MTVCNASQRQAHAQATAVSL	T47D	phage binding	peptide		relative to: targeting over control phage	selectivity ratio	1.2 ± 0.19
CTTTATAAGAATAATTGTTCACTC (dsDNA)	SPL2 1-415 (Malus domestica, UniProt D9ZJC1)	EMSA	double-stranded DNA, one strand shown			binding	no binding
UUAUUGAUUGU (ssRNA)	pos-1 97-173 (Caenorhabditis elegans, UniProt G5EF15)	NMR 15N-1H HSQC	RNA			binding	binds
DNA 1 CACTGGCCGTCTTACGGTCGCTCTGCTCGACG / DNA 2 CGACCGTAAGACGGCCAGTG (dsDNA; 20 bp, 3' 12 nt overhang)	RECQL 63-592 T511A (Bos taurus, UniProt A0JN36)	fluorescence anisotropy	double-stranded DNA	with: Mg2+ 3 mM		Kd	0.0941 ± 0.0394 µM
UUUAUUUU (ssRNA)	Rc3h1 411-454 (Mus musculus, UniProt Q4VGL6)	NMR	RNA			binding	binds
GGGCGAAUUCUGCUCCACGGCGGCACCUACUGCUCCACGGCGGCACCUACUGCUCCACGGCGGCACCUACA (ssRNA)	GPATCH4 full length assumed (Homo sapiens, UniProt Q5T3I0)	pull-down	RNA	radiolabelled RNA, denaturing PAGE readout		binding	binds
11-deoxycorticosterone	human CYP11B2	stopped-flow kinetic modelling		Model, branched, 4-state, CS, with: equimolar adrenodoxin		Kd	9.05 µM

Some of these lines once more:
Molecule	target or system	assay	system	setting	how to read	quantity	value
UUUAUUUU (ssRNA)	Rc3h1 411-454 (Mus musculus, UniProt Q4VGL6)	NMR	RNA			binding	binds
GGGCGAAUUCUGCUCCACGGCGGCACCUACUGCUCCACGGCGGCACCUACUGCUCCACGGCGGCACCUACA (ssRNA)	GPATCH4 full length assumed (Homo sapiens, UniProt Q5T3I0)	pull-down	RNA	radiolabelled RNA, denaturing PAGE readout		binding	binds
